Published values pooled from the literature.
Each numbered part is a random draw from the data of one study; scales do not carry over between parts. Values joined by “and” are separate records of one study, mostly repeats; a detail may differ.
Chain of UniProt Q5XXA6 (whole entry, unmodified, looked up): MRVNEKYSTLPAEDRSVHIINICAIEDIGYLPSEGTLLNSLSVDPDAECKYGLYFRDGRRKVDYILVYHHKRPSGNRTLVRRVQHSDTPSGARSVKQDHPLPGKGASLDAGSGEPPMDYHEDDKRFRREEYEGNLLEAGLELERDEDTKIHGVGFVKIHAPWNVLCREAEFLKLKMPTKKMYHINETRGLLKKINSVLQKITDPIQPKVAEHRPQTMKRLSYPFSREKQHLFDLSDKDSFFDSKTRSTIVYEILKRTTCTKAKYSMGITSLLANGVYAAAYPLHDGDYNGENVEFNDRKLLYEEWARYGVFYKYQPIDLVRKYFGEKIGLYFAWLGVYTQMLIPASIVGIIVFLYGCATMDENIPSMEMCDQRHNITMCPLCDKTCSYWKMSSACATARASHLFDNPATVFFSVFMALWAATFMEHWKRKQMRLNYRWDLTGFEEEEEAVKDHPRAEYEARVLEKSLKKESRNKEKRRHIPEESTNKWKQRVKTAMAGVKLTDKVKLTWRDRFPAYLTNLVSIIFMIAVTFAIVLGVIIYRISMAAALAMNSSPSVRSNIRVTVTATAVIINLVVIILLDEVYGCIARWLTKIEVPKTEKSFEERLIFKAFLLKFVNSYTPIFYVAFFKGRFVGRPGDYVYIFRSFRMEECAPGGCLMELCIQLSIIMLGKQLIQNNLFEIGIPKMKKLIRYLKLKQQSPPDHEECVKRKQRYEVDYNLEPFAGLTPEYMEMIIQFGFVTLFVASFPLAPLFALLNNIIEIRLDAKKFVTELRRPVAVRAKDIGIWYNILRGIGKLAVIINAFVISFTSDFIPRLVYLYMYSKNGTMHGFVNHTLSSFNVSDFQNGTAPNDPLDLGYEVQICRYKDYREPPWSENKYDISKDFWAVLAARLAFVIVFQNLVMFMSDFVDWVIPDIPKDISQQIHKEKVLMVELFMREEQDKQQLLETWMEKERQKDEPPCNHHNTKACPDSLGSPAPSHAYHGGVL
Chain of UniProt Q9Y2H1 (whole entry, looked up): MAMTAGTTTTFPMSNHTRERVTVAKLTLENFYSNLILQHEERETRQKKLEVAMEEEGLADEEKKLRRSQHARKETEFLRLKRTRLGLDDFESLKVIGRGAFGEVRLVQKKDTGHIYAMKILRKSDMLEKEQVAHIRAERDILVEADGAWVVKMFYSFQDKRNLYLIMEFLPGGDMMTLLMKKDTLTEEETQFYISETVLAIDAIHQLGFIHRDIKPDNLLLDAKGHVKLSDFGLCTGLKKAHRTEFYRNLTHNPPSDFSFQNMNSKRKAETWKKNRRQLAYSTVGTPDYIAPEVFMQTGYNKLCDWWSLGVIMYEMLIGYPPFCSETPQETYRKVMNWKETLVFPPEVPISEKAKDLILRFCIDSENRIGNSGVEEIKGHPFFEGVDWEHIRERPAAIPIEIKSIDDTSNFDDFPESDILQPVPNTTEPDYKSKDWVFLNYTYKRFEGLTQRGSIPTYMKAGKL
Chain of UniProt Q13237 (whole entry, looked up): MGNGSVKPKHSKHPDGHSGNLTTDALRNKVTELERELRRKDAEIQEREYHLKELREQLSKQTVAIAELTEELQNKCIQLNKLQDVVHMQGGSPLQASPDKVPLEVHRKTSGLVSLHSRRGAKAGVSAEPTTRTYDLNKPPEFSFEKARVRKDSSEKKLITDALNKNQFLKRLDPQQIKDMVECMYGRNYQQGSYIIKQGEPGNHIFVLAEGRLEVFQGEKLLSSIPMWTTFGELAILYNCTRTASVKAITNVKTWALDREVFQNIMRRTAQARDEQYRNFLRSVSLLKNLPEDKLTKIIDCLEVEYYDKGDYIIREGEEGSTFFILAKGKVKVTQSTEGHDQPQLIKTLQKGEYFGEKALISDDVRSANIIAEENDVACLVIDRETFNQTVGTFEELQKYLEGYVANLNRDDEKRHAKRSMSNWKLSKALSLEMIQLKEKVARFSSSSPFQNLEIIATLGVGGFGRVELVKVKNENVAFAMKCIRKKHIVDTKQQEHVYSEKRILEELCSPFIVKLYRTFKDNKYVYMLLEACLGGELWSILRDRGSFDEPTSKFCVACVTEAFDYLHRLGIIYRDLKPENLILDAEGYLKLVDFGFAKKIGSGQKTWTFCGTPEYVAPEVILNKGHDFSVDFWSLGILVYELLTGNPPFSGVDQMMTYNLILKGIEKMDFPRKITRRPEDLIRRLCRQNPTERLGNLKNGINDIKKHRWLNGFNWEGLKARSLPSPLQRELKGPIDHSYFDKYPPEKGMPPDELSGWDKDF
Chain of UniProt Q9NRM7 (whole entry, looked up): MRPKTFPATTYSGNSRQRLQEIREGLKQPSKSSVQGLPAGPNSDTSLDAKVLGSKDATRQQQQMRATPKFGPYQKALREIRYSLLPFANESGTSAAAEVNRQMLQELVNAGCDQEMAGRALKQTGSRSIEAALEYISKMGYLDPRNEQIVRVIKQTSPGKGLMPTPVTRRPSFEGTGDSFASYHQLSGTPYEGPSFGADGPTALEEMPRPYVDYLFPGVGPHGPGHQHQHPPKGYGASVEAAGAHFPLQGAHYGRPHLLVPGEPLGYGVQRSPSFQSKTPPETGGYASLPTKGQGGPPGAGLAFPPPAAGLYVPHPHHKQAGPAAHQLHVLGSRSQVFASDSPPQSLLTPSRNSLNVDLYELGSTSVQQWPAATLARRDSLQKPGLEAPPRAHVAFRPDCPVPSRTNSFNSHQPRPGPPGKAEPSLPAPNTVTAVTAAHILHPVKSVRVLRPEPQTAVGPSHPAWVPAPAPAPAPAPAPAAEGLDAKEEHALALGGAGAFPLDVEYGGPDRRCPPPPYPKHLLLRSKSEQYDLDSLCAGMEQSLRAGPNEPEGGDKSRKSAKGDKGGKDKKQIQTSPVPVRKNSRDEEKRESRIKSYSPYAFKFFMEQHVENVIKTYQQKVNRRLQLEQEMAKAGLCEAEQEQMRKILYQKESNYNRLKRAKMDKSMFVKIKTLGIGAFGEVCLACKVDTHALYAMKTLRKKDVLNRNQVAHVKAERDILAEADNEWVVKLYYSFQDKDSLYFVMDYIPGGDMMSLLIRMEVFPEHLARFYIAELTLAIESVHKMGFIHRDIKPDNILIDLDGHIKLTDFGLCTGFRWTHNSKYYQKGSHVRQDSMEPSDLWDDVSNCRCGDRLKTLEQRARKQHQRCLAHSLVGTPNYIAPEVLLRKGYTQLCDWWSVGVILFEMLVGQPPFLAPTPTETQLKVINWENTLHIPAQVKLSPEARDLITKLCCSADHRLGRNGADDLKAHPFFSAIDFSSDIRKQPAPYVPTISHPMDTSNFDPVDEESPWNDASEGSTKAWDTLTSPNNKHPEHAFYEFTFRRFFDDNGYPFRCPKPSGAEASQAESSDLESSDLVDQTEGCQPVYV
Chain of UniProt Q8N4C8 (whole entry, looked up): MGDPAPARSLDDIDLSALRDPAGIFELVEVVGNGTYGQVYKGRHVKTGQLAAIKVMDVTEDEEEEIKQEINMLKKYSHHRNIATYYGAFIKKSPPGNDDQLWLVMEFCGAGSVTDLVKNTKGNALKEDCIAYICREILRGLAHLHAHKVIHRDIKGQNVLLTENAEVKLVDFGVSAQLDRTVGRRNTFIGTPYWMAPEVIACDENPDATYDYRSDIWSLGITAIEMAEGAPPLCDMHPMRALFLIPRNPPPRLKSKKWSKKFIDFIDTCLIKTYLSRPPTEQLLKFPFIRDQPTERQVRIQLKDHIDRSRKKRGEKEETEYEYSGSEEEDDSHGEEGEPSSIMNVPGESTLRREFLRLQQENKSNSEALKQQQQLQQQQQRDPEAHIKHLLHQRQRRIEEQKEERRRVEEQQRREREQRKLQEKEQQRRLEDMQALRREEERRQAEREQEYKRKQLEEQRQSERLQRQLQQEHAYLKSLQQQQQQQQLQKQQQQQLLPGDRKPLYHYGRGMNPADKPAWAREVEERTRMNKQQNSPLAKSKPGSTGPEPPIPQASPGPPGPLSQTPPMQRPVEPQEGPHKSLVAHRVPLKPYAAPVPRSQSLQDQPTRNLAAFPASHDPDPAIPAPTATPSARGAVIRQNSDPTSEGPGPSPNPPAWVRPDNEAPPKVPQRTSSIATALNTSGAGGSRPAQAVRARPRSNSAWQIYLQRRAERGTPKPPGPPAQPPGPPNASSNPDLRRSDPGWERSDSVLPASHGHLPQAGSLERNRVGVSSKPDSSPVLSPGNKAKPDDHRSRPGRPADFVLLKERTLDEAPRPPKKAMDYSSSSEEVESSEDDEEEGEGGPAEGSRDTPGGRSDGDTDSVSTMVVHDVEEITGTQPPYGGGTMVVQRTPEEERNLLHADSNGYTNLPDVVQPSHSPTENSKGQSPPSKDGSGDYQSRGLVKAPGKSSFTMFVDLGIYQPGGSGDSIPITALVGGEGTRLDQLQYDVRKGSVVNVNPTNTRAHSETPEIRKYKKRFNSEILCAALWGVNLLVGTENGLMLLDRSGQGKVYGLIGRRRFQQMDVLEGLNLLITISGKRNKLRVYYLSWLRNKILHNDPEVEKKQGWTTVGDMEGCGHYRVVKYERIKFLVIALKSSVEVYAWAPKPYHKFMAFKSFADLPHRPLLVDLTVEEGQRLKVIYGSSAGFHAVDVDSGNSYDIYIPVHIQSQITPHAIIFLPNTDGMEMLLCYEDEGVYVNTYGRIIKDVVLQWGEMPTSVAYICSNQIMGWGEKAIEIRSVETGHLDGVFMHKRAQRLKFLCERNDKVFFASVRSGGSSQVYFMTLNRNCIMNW
Chain of UniProt Q8TBX8 (whole entry, looked up): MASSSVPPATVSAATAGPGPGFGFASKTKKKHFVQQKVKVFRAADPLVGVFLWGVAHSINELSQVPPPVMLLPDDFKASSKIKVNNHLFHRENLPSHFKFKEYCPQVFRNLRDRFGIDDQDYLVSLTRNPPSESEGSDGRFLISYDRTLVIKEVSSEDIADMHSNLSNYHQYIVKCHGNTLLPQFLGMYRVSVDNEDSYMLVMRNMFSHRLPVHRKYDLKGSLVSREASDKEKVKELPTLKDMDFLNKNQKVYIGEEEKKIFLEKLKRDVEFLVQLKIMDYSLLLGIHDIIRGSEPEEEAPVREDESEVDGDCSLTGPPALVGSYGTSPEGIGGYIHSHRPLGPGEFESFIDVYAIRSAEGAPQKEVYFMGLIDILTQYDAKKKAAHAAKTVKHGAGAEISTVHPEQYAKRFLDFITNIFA

Set 1
Species: mouse
Sample: microsomes or S9
Tested at: 2 µM
Time: 0.5 h
SMILES	remaining compound
Cc1ccc(C2c3nc[nH]c3CCN2C(=O)Nc2ccc(C#N)cc2)cc1F (stereo not drawn)	33.4%
CCOC1CC(N(C)C(=O)Nc2c(C)noc2C)C12CCCC2 (stereo not drawn)	8.19%
O=C(NCC1CCCO1)c1ccc(NC(=O)c2nc(-n3cnnc3)ccc2Br)cc1 (stereo not drawn)	75.1%
O=c1c2c(ccn1Cc1cc(F)ccc1F)ccn2Cc1cccnc1	0.856%

Set 2
SMILES: CC(C)(C)c1cnc(CSc2cnc(NC(=O)C3CCN(CCCCCSc4cccc5c4CN(C4CCC(=O)NC4=O)C5=O)CC3)s2)o1 (stereo not drawn)
cell line	read-out	method	tested at	time	reference	viability
HuT78	cell growth or viability	trypan blue	50 nM	48 h	–	52.9%
HH	–	CCK-8	1 nM	–	–	105% and 98.7%
HuT78	–	trypan blue exclusion	50 nM	48 h	untreated control	53.3% and 55.6%

Set 3
SMILES: C=CCc1ccc(O)c(-c2ccc(O)c(CC=C)c2)c1
Read-out: chloride current
Method: whole-cell voltage clamp
target	action	tested at	notes	together with	IC50 [µM]
Anoctamin-1 (ANO1, Homo sapiens, UniProt Q5XXA6, del476-501/L548A)	–	–	membrane voltage 80 mV	–	6.35
Anoctamin-1 (ANO1, Homo sapiens, UniProt Q5XXA6, del476-501)	–	–	membrane voltage 60 mV	300 nM Ca2+	4.02
Anoctamin-1 (ANO1, Homo sapiens, UniProt Q5XXA6, del476-501/F803W)	inhibitor	40 mV holding voltage	–	–	5.21

Set 4
Structure (SMILES): CNCc1ccccc1-c1csc([C@@H](C)Nc2nc(C)nc3cc(OC)c(OC)cc23)c1
Read-out: cell-free assay
Method: competition with immobilised ligand
Tested at: 1 µM
target	remaining binding
Eukaryotic translation initiation factor 2-alpha kinase 1 (EIF2AK1, Homo sapiens, UniProt Q9BQI3)	100%
Phosphatidylinositol 4,5-bisphosphate 3-kinase catalytic subunit alpha isoform (PIK3CA, Homo sapiens, UniProt P42336, H1047Y)	100%
Serine/threonine-protein kinase 38-like (STK38L, Homo sapiens, UniProt Q9Y2H1)	86%
Ribosomal protein S6 kinase alpha-6, C-terminal kinase domain (RPS6KA6, Homo sapiens, UniProt Q9UK32)	100%
Non-receptor tyrosine-protein kinase TYK2, JH2 (TYK2, Homo sapiens, UniProt P29597)	71%
Activin receptor type-2B (ACVR2B, Homo sapiens, UniProt Q13705)	100%
Phosphatidylinositol 5-phosphate 4-kinase type-2 gamma (PIP4K2C, Homo sapiens, UniProt Q8TBX8)	92%
ALK tyrosine kinase receptor (ALK, Homo sapiens, UniProt Q9UM73, L1196M)	100%
Receptor-type tyrosine-protein kinase FLT3 (FLT3, Homo sapiens, UniProt P36888, D835V/ITD)	48%
Serine/threonine-protein kinase LATS2 (LATS2, Homo sapiens, UniProt Q9NRM7)	98%
cGMP-dependent protein kinase 2 (PRKG2, Homo sapiens, UniProt Q13237)	85%
Serine/threonine-protein kinase RIO2 (RIOK2, Homo sapiens, UniProt Q9BVS4)	100%
Tyrosine-protein kinase ITK/TSK (ITK, Homo sapiens, UniProt Q08881)	100%
Tyrosine-protein kinase ABL1, non-phosphorylated (ABL1, Homo sapiens, UniProt P00519, H396P)	78%
Vascular endothelial growth factor receptor 1 (FLT1, Homo sapiens, UniProt P17948)	87%
Misshapen-like kinase 1 (MINK1, Homo sapiens, UniProt Q8N4C8)	57%
Mitogen-activated protein kinase kinase kinase 12 (MAP3K12, Homo sapiens, UniProt Q12852)	100%

Set 5
Organism: Sarcocystis neurona
Read-out: parasite activity
Tested at: 10 µM
Time: 96 h
SMILES	activity class
COC(=O)Nc1nc2cc(C(=O)c3ccc(F)cc3)ccc2[nH]1	inactive
Cc1cccc(C)c1NC(=O)C(C)N (stereo not drawn)	inactive
CSc1nc2cc(Cl)c(Oc3cccc(Cl)c3Cl)cc2[nH]1	inactive

Single results of other studies
Substance	target or system	assay	system	conditions	quantity	result
SPTBN2 (Homo sapiens, UniProt O15020)	BOP1 (Homo sapiens, UniProt Q14137)	cross-linking MS	cell fractions	together with: DMTMM	cross-linked residues	K979 to E124
COc1ccc(-c2c(Nc3ccccn3)[nH]c3c(C4=CCCCC4)c(-c4ccccc4)nn3c2=O)cc1	–	LC-MS/MS	human, plasma	50 mg once daily	AUC(0-t), dose-normalised	646 ng·h/mL/mg and 697 ng·h/mL/mg and 661 ng·h/mL/mg
USP48 (Homo sapiens, UniProt Q86UV5)	RAD50 (Homo sapiens, UniProt Q92878)	cross-linking MS	cell fractions	together with: DSSO	cross-linked residues	K231 to S447
CC(C)n1cnc(-c2ccc(F)cc2)c1-c1ncc(C(=O)Nc2ccc(N3CCN(C)CC3)cc2)[nH]1	–	phase 2a clinical trial	patients with idiopathic pulmonary fibrosis	60 mg once daily	patients with weight decreased TEAE	0%
EED (Homo sapiens, UniProt O75530)	EZH2 (Homo sapiens, UniProt Q15910)	cross-linking MS	–	hits only	interaction screen	cross-linked
ARID1A (Homo sapiens, UniProt O14497)	SMARCD2 (Homo sapiens, UniProt Q92925)	cross-linking MS	–	hits only	interaction screen	cross-linked

Some of these lines once more (set 4):
target	remaining binding
Serine/threonine-protein kinase RIO2 (RIOK2, Homo sapiens, UniProt Q9BVS4)	100%
Tyrosine-protein kinase ITK/TSK (ITK, Homo sapiens, UniProt Q08881)	100%
Tyrosine-protein kinase ABL1, non-phosphorylated (ABL1, Homo sapiens, UniProt P00519, H396P)	78%
Vascular endothelial growth factor receptor 1 (FLT1, Homo sapiens, UniProt P17948)	87%
